{"data": "Assay results of several laboratories", "note": "Numbered parts are unrelated; each lists some results of a single study. ± gives the spread as reported."}
{"data": "Block 1", "Compound": "O=C1NC2(CC2)COc2ncc(F)cc2[C@H]2COCCN2c2ccn3ncc1c3n2", "host": "Sprague-Dawley rat, female", "matrix": "serum", "route": "oral", "time": "4 weeks daily"}
{"dose": "5 mg/kg/day", "notes": "end of treatment", "glucose [mmol/L]": "7.83 ± 0.78"}
{"dose": "20 mg/kg/day", "notes": "end of recovery period", "glucose [mmol/L]": "7.56 ± 0.96"}
{"dose": "20 mg/kg/day", "notes": "end of treatment", "glucose [mmol/L]": "6.47 ± 1.77"}
{"data": "Single results of other studies"}
{"Molecule": "ORF34 E41A/T42A (Kaposi's sarcoma-associated herpesvirus)", "target or system": "ORF24 1-400", "assay": "pull-down", "scale": "relative to: wild-type ORF34, higher = more binding", "quantity": "relative binding", "value": 0.877}
{"Molecule": "CC(C)CC(C(=O)N1CC2(CC1C#N)C(=O)Nc1ccccc12)N(C)C(=O)c1cc2c(F)cc(F)c(F)c2[nH]1 (stereo not shown)", "target or system": "Human coronavirus 229E", "assay": "cytopathic effect", "system": "MRC5", "conditions": "1.492 µM", "quantity": "inhibition", "value": "93.4%"}
{"Molecule": "CC(C)(C)C(=O)OCOP(=O)(OCOC(=O)C(C)(C)C)C1CCCN(O)C1=O (stereo not shown)", "target or system": "HOP-92", "quantity": "CC50", "value": "> 100 µM"}
{"Molecule": "ORF34 L188A/L189A (Kaposi's sarcoma-associated herpesvirus)", "target or system": "ORF24 1-400", "assay": "pull-down", "scale": "relative to: wild-type ORF34, higher = more binding", "quantity": "relative binding", "value": 0.503}
{"note": "Excerpt of the above (block 1):"}
{"dose": "5 mg/kg/day", "notes": "end of treatment", "glucose [mmol/L]": "7.83 ± 0.78"}
